Measured values from different studies.
A part holds a random share of what one study measured. Changes are numbered by the printed parent chain.

Sample 1
Target: Interferon regulatory factor 7, full length, phosphomimetic (IRF7, Homo sapiens, UniProt Q92985, residues 1-503, S471D/S472D/S475D/S476D/S477D/S483D/S484D/S487D)
Method: protein-binding microarray
Molecule type: double-stranded DNA, one strand shown
Sample: in vitro
Concentration: 2200 nM top
Notes: 60-bp whole probe
Added: salmon DNA 0.4 mg/ml
Baseline: random background probes
Direction: higher = stronger binding
Constant ends, left off below: GCCTAGCAC … GTCTTGATTCGCTTGACGCTGCTG
Construct (chain): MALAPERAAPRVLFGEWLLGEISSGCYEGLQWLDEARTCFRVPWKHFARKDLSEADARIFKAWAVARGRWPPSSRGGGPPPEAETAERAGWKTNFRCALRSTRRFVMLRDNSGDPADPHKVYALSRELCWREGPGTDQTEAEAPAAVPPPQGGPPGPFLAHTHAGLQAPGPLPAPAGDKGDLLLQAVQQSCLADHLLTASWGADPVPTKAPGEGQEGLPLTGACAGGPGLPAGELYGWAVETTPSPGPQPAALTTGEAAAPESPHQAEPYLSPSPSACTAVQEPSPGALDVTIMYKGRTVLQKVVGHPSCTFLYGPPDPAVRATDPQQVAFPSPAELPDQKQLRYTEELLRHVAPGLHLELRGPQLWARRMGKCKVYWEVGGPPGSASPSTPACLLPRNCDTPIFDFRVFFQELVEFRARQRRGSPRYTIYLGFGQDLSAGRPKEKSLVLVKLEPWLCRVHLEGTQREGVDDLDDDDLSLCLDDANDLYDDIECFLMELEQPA
Strand	fitted relative affinity
TTAGATATCGGGTTTCAATTAGTGCTA	0.708 z-score
TTAGGGTTCGGTATCGGTTAGTGCTAG	1.1 z-score
CATTGCTTGTGTTTATTGTGGTGCTAG	1.47 z-score
GACGGTATCGGGACTGCGGACGTGCTA	-0.655 z-score
GATGGTCTCCTTCTCCTGACGTGCTAG	0.979 z-score
AGTATGTTCACTATTTAAGGGTGCTAG	0.397 z-score
GACGGTATCGGGCCTGGGGACGTGCTA	-0.827 z-score
TTAGGACTGGAGTTTCGGTTAGTGCTA	3.88 z-score
CAGGTTTTGCTAAGTCAACTGGTGCTA	0.564 z-score
TTAGGACTGCTACTCCTTTAGTGCTAG	0.565 z-score
GACGCACTGGGGTATCGAGACGTGCTA	-0.285 z-score
TTAGATTTCAGTTCCGCTTAGTGCTAG	2.48 z-score
TGACTTTTGAGAGATGGAAACGTGCTA	0.0264 z-score
TCAAAATTCTAATTAGAACTGTGCTAG	-0.844 z-score
CCTCCTCTCTCTTTCCACTTGTGCTAG	3.73 z-score
AGTCATCTCCAAAGTCAGCCAGTGCTA	0.249 z-score
GACGATTTAAGACTGGAGACGTGCTAG	-0.118 z-score
GACGATTTCGGGATTGGAGACGTGCTA	2.14 z-score
TCAGGTATCGGGTTTCGGTTAGTGCTA	4.31 z-score

Sample 2
Target: Fragile X messenger ribonucleoprotein 1, C-terminal low-complexity region (Fmr1, Mus musculus, UniProt P35922)
Method: RNA Bind-n-Seq
Molecule type: RNA
Sample: in vitro
Concentration: 200 nM
Notes: whole 134-nt RNA, ends assumed
Added: 150 mM LiCl
Baseline: input library
Direction: higher = stronger binding
Each molecule: 7-deaza-guanosine replaces G
Constant ends, left off below: GGGAGUUCUACAGUCCGACGAUC … UGGAAUUCUCGGGUGUCAAGG
Strand	log2 enrichment
GAGCUGGAAGCUAUCAAAGCUCGAGUCAGGGAGAUGGAGGAAGAAGCUGAGAAGCUAAAGGAGCUACAGAACGAGGUAGAGAAGCAGAUG	-0.205
CCUGUGCUACACAUCGUAUGUACCGAAUCGGAAAAAAAGGAAAAAAAGGGAAAAAAAGGGGAAAGUAUUAUGUUACGCCGUUCGGAUCUG	-0.389
CUCAAGUCCUGUGCUACACAUCGUAUGUACCGAAUCGGAGGUUUUUGGUUUGGAAAGUAUUAUGUUACGCCGUUCGGAUCUGCACUUCCA	-1.22
UGGGAGGUGGAUUUUGUUUCUUUUUUUAGCUCAUUUCCAGGGGUGGGAAUUUUUUUUUAAUAUGUGUCAUGAAUAAAGUUGUUUUUGAAA	0.739
ACCAUGCAGGUGGGCAUCUUUGGGAAGUGGGGCAAGGGGGGUAUAGGGAGGGGGGUAACACUUUGGGAACAGGUGGUCCCAGGUCGUUUC	0.871
CAAGCCAAGGAAAUGGUGUUAGAGUUAAUUCGUGAUCAAGGCGGUUUCAGAGAAGUUCGGAAUGAGUAUGGGUCAAGAAUAGGAGGAAAU	-1.88
CACAGACAACACGCACCCACACAGACACAGAGGGAAGGGGUUGGGAUGGGGACAGGGUGCACAGCAGUGCGGGGUAGGACCCCAGCCCCU	-0.265
UGUGCUACACAUCGUAUGUACCGAAUCGGGGAAAAAGGGGUUUUUUUGGGGUUUUUUUGGGGAAAGUAUUAUGUUACGCCGUUCGGAUCU	-1.68

Sample 3
Target: ABI1, truncated, D143A, DHFR fusion (Arabidopsis thaliana)
Method: DHFR PCA, deep sequencing
Sample: yeast
Notes: methotrexate growth selection, single substitutions
Added: (+)-ABA 58 µM
Baseline: wild-type fitted maximum
Direction: higher = stronger binding
Starting sequence: PYL1, truncated, DHFR fusion (Arabidopsis thaliana); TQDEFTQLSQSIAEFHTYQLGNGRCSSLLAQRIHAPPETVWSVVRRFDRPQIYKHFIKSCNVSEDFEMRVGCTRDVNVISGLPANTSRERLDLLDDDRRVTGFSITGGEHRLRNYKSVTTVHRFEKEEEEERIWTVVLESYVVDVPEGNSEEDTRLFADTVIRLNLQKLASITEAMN
Variant	relative binding score
K58E	77.2%
R98H	84.5%
Q19N	91.3%
F124D	88.3%
S171M	79.1%
C60A	60.1%
M68V	80.2%
G108E	5.83%
R123S	97.6%
R155V	78.9%
L91N	-0.613%
A170E	44.6%
K116P	-11.2%
R113M	91.1%
R98E	59.2%
E129W	79.1%

Sample 4
Target: CCNF, cyclin fold, Cln2 fusion (human)
Method: yeast growth competition, sequencing
Sample: yeast
Notes: weak parent motif
Baseline: not given
Direction: higher = stronger binding
Starting sequence: PKN2 docking peptide (human); VSAVQKLDFSDTM
Variant	normalised enrichment score
V4C	-0.301
S2I	0.311
A3C	1.01
F9W	-0.403
V1G	-0.22
A3H	0.259
D11G	1.18
S2Q	0.804
L7D	-0.922
T12I	0.717
F9G	-0.372
V4E	-0.332
L7N	-0.00438
A3D	-1.81
V1N	0.865
M13L	0.556
L7G	-0.228
L7Q	-0.634
M13Q	0.114
M13G	1.14
K6E	-1.18
S10L	0.282
V4M	0.306
V1T	0.339
M13S	0.234

A few entries again (sample 3):
Variant	relative binding score
K58E	77.2%
R98H	84.5%
Q19N	91.3%
F124D	88.3%
S171M	79.1%
C60A	60.1%
M68V	80.2%
